Assay results collected from several papers.
± gives the spread as reported.

SMILES | target | test | system | conditions | how to read | endpoint | value
CCN1CCC[C@H]1CNC(=O)c1c(O)c(Cl)cc(Cl)c1OC | G-protein coupled receptor 20 (GPR20, Homo sapiens, UniProt Q99678) | β-arrestin recruitment, TANGO luminescence, measured: GPR20 | – | concentration not given | relative to: basal luminescence | log2 fold change | 0.228
CC[C@H](C)[C@H](NC(=O)[C@H](Cc1ccccc1)NC(=O)[C@H](CCC(=O)O)NC(=O)[C@H](CCCNC(=N)N)NC(=O)[C@H](C)NC(=O)[C@H](C)NC(=O)[C@H](CCC(N)=O)NC(=O)[C@H](CCC(=O)O)NC(=O)[C@H](CCC(=O)O)NC(=O)[C@H](CC(C)C)NC(=O)[C@H](Cc1ccc(O)cc1)NC(=O)[C@H](CO)NC(=O)[C@H](CO)NC(=O)[C@@H](NC(=O)[C@H](CC(=O)O)NC(=O)[C@H](CO)NC(=O)[C@@H](NC(=O)[C@H](Cc1ccccc1)NC(=O)[C@@H](NC(=O)CNC(=O)[C@H](CCC(=O)O)NC(=O)[C@H](C)NC(=O)CCc1cnc[nH]1)[C@@H](C)O)[C@@H](C)O)C(C)C)C(=O)N[C@@H](C)C(=O)N[C@@H](Cc1c[nH]c2ccccc12)C(=O)N[C@@H](CC(C)C)C(=O)N[C@H](C(=O)N[C@@H](CCCCNc1c(NCCCCCN(O)C(=O)CCC(=O)NCCCCCN(O)C(=O)CCC(=O)NCCCCCN(O)C(C)=O)c(=O)c1=O)C(=O)NCC(=O)N[C@@H](CCCNC(=N)N)C(=O)N[C@@H](CCCCNC(=O)COCCOCCNC(=O)COCCOCCNC(=O)CC[C@H](NC(=O)CCCCCCCCCCCCCCCCC(=O)O)C(=O)O)C(=O)NCC(=O)NCC(=O)N[C@@H](CO)C(=O)N[C@@H](CCCCNc1c(NCCCCCN(O)C(=O)CCC(=O)NCCCCCN(O)C(=O)CCC(=O)NCCCCCN(O)C(C)=O)c(=O)c1=O)C(=O)O)C(C)C | GLP1R (Homo sapiens, UniProt P43220) | agonist, CRE luciferase reporter | BHK cells | Zr-loaded DFO conjugate, added: 1% HSA | relative to: parent peptide | fold potency loss | 1.9
CC[C@H](C)[C@@H]1NC(=O)[C@H](CCCNC(=N)N)NC(=O)[C@@H]2CCCN2C(=O)[C@H](Cc2ccccc2)NC(=O)[C@H]([C@@H](C)O)NC(=O)CNC(=O)[C@H](CC(C)C)NC(=O)[C@@H]2CCCN2C(=O)[C@H]([C@@H](C)O)NC(=O)[C@H](Cc2c[nH]c3ccccc23)NC(=O)[C@H](Cc2ccc(O)cc2)NC(=O)[C@H]([C@@H](C)CC)NC(=O)[C@H]([C@@H](C)O)NC(=O)[C@H]([C@@H](C)O)NC(=O)[C@@H](Cc2ccc(O)cc2)NC(=O)CSC[C@@H](C(N)=O)NC(=O)[C@H](CCCNC(=N)N)NC1=O | Vacuolar protein sorting-associated protein 29 (VPS29, Homo sapiens, UniProt Q9UBQ0) | binding, ITC | – | 25 °C, protein alone | – | ΔG | -9.8 ± 0.08 kcal/mol
COc1cc(Nc2ncc3c(n2)-c2ccc(Cl)cc2C(c2c(F)cccc2OC)=NC3)ccc1C(=O)O | PDGFRA | kinase activity | – | 1 µM | – | remaining activity | 94%
COc1cc(C[C@H]2C(=O)OC[C@@H]2Cc2ccc(OC)c(OC)c2)ccc1O | PDE4D (Homo sapiens, UniProt Q08499) | isothermal titration calorimetry | – | – | – | ΔG | -8.038 ± 0.0215 kcal/mol
CN1CCN(S(=O)(=O)c2ccc(-c3cnc(N)c(C(=O)Nc4cccnc4)n3)cc2)CC1 | NanoBiT HiBiT/LgBiT luciferase | inhibitor, HiBiT luminescence counterscreen | conditioned medium only | 1.66 µM, 24 h | relative to: vehicle | luminescence signal reduction | -3.6%
CC(=O)N[C@H](C(=O)N1C[C@H](O)C[C@H]1C(=O)NCc1ccc(-c2scnc2C)cc1)C(C)(C)SCCCCCCNC(=O)C[C@@H]1N=C(c2ccc(Cl)cc2)c2c(sc(C)c2C)-n2c(C)nnc21 | BRD4/VHL, BD1; with elongins B/C (Homo sapiens, UniProt O60885+P40337) | ITC | – | 25 °C, PROTAC:Brd4^BD1 | relative to: Kd binary over Kd ternary | cooperativity | 1
Oc1ccc(/C=C/c2cc(O)cc(O)c2)cc1 | APP (Homo sapiens, UniProt P05067) | fibril formation, ThT fluorescence | – | 1-fold of peptide, pH 7.4, room temperature, added: amyloid-beta 10 µM | relative to: untreated | aggregation half-time | 110 ± 6%
Oc1ccc(/C=C/c2cc(O)cc(O)c2)cc1 | O-methyltransferase (Sorghum bicolor, UniProt A0A1B6PFV1) | ITC | – | endothermic site, two-site model, added: SFG | – | ∆G | -8.31 kcal/mol
C[S+](CC[C@H](N)C(=O)[O-])C[C@H]1O[C@@H](n2cnc3c(N)ncnc32)[C@H](O)[C@@H]1O (stereo partly shown) | KMT2C (Homo sapiens, UniProt Q8NEZ4) | substrate, enzyme-coupled methylation | – | added: H3 peptide 200 µM | – | apparent Vmax | 1.6 ± 0.1 µM/min

Excerpt of the above:
SMILES | target | test | system | conditions | how to read | endpoint | value
Oc1ccc(/C=C/c2cc(O)cc(O)c2)cc1 | APP (Homo sapiens, UniProt P05067) | fibril formation, ThT fluorescence | – | 1-fold of peptide, pH 7.4, room temperature, added: amyloid-beta 10 µM | relative to: untreated | aggregation half-time | 110 ± 6%
